Published values collected from several papers.
Lines come from different studies, so protocols differ.
CTSL: Procathepsin L (CTSL, Homo sapiens, UniProt P07711)
Sequence of UniProt P07711 (whole entry, looked up): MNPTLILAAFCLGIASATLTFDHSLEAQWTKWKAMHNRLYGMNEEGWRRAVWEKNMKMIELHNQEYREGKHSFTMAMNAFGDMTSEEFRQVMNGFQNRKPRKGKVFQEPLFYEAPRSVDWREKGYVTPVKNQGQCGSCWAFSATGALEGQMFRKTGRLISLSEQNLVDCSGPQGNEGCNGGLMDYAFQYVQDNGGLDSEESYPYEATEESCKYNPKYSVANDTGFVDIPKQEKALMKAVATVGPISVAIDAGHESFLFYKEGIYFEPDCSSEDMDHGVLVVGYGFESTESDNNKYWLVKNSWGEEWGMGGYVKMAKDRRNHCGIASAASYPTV
DRD3: D(3) dopamine receptor (DRD3, Homo sapiens, UniProt P35462)
Sequence of UniProt P35462 (whole entry, looked up): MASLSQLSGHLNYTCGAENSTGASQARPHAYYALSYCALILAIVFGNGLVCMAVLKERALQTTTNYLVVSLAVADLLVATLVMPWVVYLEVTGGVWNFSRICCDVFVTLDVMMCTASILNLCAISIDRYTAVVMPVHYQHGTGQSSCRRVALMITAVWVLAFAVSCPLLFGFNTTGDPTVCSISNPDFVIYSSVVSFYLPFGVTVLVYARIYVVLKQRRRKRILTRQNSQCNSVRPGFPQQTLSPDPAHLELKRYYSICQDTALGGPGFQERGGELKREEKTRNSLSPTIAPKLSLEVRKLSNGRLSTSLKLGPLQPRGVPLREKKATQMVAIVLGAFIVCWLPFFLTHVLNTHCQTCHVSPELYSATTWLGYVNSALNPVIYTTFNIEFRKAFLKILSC
GSK3B: Glycogen synthase kinase-3 beta (GSK3B, Homo sapiens, UniProt P49841)
Sequence of UniProt P49841 (whole entry, looked up): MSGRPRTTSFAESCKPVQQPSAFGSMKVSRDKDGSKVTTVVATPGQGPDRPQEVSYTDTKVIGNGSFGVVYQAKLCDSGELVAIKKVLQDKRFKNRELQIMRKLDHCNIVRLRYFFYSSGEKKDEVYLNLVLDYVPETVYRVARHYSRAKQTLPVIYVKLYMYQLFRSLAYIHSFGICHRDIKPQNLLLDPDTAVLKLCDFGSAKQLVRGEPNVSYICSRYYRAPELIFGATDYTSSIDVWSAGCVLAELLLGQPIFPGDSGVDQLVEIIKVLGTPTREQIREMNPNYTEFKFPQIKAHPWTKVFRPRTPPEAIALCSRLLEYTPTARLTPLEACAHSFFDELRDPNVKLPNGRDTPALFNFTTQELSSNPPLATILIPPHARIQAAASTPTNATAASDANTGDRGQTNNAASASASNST
Sequence of UniProt P25103 (whole entry, looked up): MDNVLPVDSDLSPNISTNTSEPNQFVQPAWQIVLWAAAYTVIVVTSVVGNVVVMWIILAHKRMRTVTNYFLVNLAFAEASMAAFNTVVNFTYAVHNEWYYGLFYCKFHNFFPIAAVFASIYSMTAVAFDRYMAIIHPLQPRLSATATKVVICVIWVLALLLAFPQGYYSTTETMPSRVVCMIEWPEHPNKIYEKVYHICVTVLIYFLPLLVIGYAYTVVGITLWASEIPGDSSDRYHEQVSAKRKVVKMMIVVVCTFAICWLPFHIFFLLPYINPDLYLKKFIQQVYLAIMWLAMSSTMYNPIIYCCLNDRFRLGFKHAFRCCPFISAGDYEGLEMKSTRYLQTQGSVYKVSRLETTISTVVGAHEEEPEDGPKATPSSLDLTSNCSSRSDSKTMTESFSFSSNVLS
Sequence of UniProt P22607 (whole entry, looked up): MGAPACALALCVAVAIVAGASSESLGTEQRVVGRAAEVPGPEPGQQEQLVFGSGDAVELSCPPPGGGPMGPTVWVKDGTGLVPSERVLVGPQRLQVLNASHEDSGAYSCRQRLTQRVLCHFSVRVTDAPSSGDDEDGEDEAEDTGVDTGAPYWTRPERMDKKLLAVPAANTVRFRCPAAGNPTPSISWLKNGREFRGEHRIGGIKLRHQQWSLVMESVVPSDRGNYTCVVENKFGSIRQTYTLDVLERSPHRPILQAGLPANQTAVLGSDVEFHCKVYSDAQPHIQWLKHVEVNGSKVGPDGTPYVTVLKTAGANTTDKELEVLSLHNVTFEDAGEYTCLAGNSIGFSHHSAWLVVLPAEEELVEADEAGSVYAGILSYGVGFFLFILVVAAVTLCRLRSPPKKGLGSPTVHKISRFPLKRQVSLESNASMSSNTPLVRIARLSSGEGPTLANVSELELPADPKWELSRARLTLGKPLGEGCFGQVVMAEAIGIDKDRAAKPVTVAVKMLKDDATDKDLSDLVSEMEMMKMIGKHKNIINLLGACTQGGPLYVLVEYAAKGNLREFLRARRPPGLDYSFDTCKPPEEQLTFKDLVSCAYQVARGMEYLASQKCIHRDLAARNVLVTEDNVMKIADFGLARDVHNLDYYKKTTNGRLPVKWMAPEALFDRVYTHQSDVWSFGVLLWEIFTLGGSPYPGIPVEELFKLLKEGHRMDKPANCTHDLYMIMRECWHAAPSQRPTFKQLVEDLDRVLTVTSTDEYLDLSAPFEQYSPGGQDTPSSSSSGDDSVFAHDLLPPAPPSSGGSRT
Sequence of UniProt Q04912 (whole entry, looked up): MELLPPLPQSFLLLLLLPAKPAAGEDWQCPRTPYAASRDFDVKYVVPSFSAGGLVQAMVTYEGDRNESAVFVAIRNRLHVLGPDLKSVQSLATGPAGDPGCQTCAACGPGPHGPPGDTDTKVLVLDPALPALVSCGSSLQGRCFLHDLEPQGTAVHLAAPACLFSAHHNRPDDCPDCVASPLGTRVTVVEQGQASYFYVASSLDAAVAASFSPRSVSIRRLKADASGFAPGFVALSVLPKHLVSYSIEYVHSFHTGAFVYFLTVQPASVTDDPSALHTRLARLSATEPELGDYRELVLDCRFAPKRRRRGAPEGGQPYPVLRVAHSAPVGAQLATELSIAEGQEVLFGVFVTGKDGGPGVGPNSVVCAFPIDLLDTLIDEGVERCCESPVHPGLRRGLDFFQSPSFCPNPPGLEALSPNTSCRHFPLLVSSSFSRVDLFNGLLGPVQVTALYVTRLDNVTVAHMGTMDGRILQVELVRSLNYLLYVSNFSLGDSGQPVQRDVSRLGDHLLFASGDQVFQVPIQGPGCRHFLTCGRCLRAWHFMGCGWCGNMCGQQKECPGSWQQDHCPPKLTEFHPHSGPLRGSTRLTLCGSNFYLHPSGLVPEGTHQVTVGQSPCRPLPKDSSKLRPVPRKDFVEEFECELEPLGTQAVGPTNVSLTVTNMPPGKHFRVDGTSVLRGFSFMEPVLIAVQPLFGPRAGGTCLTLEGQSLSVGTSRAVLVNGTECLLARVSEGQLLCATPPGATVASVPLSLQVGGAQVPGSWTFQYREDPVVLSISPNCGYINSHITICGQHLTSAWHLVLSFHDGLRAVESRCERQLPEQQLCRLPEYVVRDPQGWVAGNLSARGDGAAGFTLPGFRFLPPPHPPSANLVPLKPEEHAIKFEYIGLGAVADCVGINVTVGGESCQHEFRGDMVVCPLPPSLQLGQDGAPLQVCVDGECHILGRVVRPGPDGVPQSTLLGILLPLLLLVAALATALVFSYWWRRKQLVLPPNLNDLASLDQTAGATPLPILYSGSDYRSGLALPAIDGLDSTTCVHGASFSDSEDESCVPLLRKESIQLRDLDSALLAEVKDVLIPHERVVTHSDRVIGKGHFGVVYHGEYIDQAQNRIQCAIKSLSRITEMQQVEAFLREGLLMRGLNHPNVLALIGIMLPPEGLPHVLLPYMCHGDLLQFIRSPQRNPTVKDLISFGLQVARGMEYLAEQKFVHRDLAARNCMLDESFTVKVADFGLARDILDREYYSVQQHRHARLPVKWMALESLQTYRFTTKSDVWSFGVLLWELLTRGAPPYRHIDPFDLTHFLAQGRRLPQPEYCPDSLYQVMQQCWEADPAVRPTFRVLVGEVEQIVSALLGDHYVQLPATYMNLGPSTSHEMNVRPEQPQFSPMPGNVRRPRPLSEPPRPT
Sequence of UniProt P61075 (whole entry, looked up): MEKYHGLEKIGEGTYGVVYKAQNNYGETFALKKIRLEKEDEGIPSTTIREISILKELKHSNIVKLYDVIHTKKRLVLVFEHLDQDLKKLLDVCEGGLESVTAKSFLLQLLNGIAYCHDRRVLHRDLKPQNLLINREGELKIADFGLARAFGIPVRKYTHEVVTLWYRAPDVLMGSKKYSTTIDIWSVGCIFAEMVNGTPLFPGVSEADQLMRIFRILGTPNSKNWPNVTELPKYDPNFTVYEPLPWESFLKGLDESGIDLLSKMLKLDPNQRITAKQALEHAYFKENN
Sequence of UniProt Q9H8M2 (whole entry, unmodified, looked up): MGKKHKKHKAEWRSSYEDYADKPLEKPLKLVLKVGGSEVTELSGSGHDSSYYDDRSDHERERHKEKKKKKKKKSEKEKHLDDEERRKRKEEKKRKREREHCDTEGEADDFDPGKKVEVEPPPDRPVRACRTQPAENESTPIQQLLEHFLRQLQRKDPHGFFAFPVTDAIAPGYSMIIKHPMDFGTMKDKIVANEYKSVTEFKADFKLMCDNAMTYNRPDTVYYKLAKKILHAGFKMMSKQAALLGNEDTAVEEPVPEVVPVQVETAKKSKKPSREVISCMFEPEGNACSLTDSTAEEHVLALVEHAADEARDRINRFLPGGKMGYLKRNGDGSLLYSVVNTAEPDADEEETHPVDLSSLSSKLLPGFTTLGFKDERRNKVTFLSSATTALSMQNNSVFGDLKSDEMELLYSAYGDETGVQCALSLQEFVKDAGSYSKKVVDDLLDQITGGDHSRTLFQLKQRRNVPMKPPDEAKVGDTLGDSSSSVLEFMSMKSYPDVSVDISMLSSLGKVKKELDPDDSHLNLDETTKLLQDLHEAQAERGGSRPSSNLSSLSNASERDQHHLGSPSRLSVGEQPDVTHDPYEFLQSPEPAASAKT
Sequence of UniProt P19784 (whole entry, looked up): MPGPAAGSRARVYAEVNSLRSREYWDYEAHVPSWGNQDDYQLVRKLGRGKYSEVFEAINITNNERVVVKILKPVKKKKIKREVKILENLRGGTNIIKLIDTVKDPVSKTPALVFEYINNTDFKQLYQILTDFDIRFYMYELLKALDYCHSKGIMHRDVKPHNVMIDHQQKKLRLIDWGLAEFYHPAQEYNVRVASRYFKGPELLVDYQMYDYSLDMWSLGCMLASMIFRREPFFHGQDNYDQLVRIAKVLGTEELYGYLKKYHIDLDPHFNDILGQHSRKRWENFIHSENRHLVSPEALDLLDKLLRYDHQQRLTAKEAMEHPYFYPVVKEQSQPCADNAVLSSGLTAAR

C1=C/COCc2cc(ccc2OCCN2CCCC2)Nc2nccc(n2)-c2cccc(c2)COC/1  remaining binding (CSNK2A2 (Homo sapiens, UniProt P19784); binding; 0.1 µM): 28%
CC(=NNC(N)=S)c1ccc(Nc2nnc(-c3ccc(Cl)cc3)c3ccccc23)cc1  viability (MCF7; cell growth or viability, MTT; 0.312 µM, 24 h): 6.82%
FC(F)(F)Oc1cccc(-c2cnc3ccc(-c4ccncc4)nn23)c1  activity vs control (TESK1 (Homo sapiens, UniProt Q15569); enzyme activity, inhibitor, radiometric; 1 µM): 24%
Cc1coc2c1C(=O)C(=O)c1c-2ccc2c1CCCC2(C)C  remaining activity (CTSL; enzyme activity, inhibitor; 100 µM): 63.8%
COCc1cc(OC)c(-c2cc(C(C)=O)n3ccccc23)cc1OC  ΔTm (BRD9 (Homo sapiens, UniProt Q9H8M2); thermal stability, DSF; 200 µM): 9.4 °C
CC1=CC(=O)c2ccccc2C1=O  remaining activity (CTSL; enzyme activity, inhibitor; 100 µM): 16.4%
Nc1ccn([C@@H]2O[C@H](CO)[C@@H](O)C2(F)F)c(=O)n1  viability (MCF7; cell growth or viability, MTT; 5 µg/mL, 48 h): 26.1%
Cc1ccc(NS(=O)(=O)c2c(C)[nH]c(C)c2C(=O)N2CCCC2C)cc1Cl (centres unmarked)  Emax (DRD3; β-arrestin recruitment, agonist; 90 min): 103%
CCCCC(=O)Nc1ccc(-c2ccc3ncn(CCC)c(=O)c3c2)cn1  remaining binding (MAST1 (Homo sapiens, UniProt Q9Y2H9); binding, competition with immobilised ligand; 0.5 µM): 100%
C=CC(=O)N1CCC(COCC(=O)N2CCN(c3nc(-c4cnc(N)nc4C(F)F)nc(N4CCOC[C@@H]4C)n3)CC2)CC1  remaining binding (PIM2 (Homo sapiens, UniProt Q9P1W9); binding, competition with immobilised ligand; 1 µM): 100%
CC(=NNC(=O)c1cccnc1)c1ccc(Nc2nnc(-c3ccc(Cl)cc3)c3ccccc23)cc1  viability (MCF7; cell growth or viability, MTT; 0.625 µM, 24 h): 49.4%
N[C@H]1CCN(c2nccc(-c3cnn4ncccc34)n2)C1  remaining signal (CRK2 (Plasmodium falciparum, UniProt P61075); cell-free assay; 1 µM): 38%
Cc1ccc(N(O)N=Nc2ccc(S(=O)(=O)Nc3cc(C)on3)cc2)cc1  inhibition (ABTS scavenging; 300 µg/mL): 57.2%
COc1cc(-c2cncc3c2CN(C)Cc2cc(N4CCNCC4)ccc2-3)cc(OC)c1OC  remaining activity (GSK3B; enzyme activity, inhibitor; 1 µM): 101%
CCN(O)N=Nc1ccc(S(=O)(=O)Nc2onc(C)c2C)cc1  inhibition (ABTS scavenging; 300 µg/mL): 57.3%
Nc1ncnc2occ(-c3ccc(NC(=O)Nc4cc(C(F)(F)F)ccc4F)cc3)c12  remaining signal (KIT (Homo sapiens, UniProt P10721, V559D); cell-free assay, inhibitor; 20 µM): 0.1%
O=C1c2ccccc2-n2c1nc1ccccc1c2=O  remaining activity (CTSL; enzyme activity, inhibitor; 100 µM): 46.6%
CC[C@H](C)[C@H](NC(=O)[C@H](CCC(N)=O)NC(=O)[C@H](CC(C)C)NC(=O)[C@H](CCSC)NC(=O)[C@H](CCCCN)NC(=O)[C@H](CO)NC(=O)[C@H](CO)NC(=O)[C@H](CCSC)NC(=O)[C@H](CC(C)C)NC(=O)[C@H](CC(N)=O)NC(=O)[C@@H](NC(=O)[C@@H](NC(=O)[C@H](CO)NC(=O)[C@H](CC(C)C)NC(=O)[C@H](CS)NC(=O)[C@H](CCCNC(=N)N)NC(=O)[C@H](CC(=O)O)NC(=O)[C@H](Cc1c[nH]c2ccccc12)NC(=O)[C@H](Cc1ccccc1)NC(=O)[C@H](C)NC(=O)[C@H](CCC(=O)O)NC(=O)[C@@H](N)CCCCN)C(C)C)[C@@H](C)CC)C(=O)N[C@@H](CC(N)=O)C(=O)N[C@@H](C)C(=O)O  remaining activity (GSK3B; enzyme activity, inhibitor, radiometric; 50 µM, 20 min): 100%
CC(=O)Nc1ccc(S(=O)(=O)N2CCN(CC(O)COc3ccc4ccccc4c3)CC2)cc1 (centres unmarked)  koff (Fibroblast growth factor 14 (Homo sapiens, UniProt Q92915); binding, SPR): 0.0191 s⁻¹
Cc1cc([C@@H](C)Nc2ccccc2C(=O)O)c2nc(N3CCC(F)(F)CC3)c(C#N)c(=O)n2c1  remaining binding (FGFR3 (Homo sapiens, UniProt P22607); binding, competition with immobilised ligand; 1 µM): 97%
CNc1ncc2c(/C=C/C(=O)N3CCC(OC)CC3)nn(Cc3cccc(C(F)(F)F)c3)c2n1  remaining activity (MST1R (Homo sapiens, UniProt Q04912); enzyme activity, inhibitor, radiometric; 1 µM): 94%
O=C(/C=C/c1ccc(O)c2c1C(C(=O)OC(Cc1ccc(O)c(O)c1)C(=O)O)C(c1ccc(O)c(O)c1)O2)OC(Cc1ccc(O)c(O)c1)C(=O)O (centres unmarked)  remaining activity (CTSL; enzyme activity, inhibitor; 100 µM): 29%
COc1cccc(OC)c1-c1cc(C(=O)NC2(C(=O)O)C3CC4CC(C3)CC2C4)nn1-c1ccc(C(=O)N(C)CCCN(C)CCCN(C)C(=O)CN2CCN(CC(=O)[O-])CCN(CC(=O)[O-])CCN(CC(=O)[O-])CC2)cc1C(C)C.[177Lu+3] (centres unmarked)  tracer uptake (HT-29 tumour model; host not given, lung; intravenous, 4 h, tumour-bearing): 3.8 %ID/g
NC/C(=C\F)COc1cccc(Cn2c(=S)[nH]c(=O)c3[nH]cnc32)c1  inhibition (TACR1 (Homo sapiens, UniProt P25103); ligand displacement, radioligand; 10 µM): < 50%
COc1ccc2[nH]c3ccccc3c2c1  remaining activity (CTSL; enzyme activity, inhibitor; 100 µM): 108%
CC[C@H](C)[C@H](NC(=O)[C@H](CCC(N)=O)NC(=O)[C@@H](NC(=O)[C@H](CCSC)NC(=O)[C@H](CCCCN)NC(=O)[C@H](CO)NC(=O)[C@@H](NC(=O)[C@H](CCSC)NC(=O)[C@H](CC(C)C)NC(=O)[C@H](CC(N)=O)NC(=O)[C@@H](NC(=O)[C@@H](NC(=O)[C@H](CO)NC(=O)[C@H](CC(C)C)NC(=O)[C@H](C)NC(=O)[C@H](CCCNC(=N)N)NC(=O)[C@H](CCC(=O)O)NC(=O)[C@H](Cc1ccc(O)cc1)NC(=O)[C@H](Cc1ccccc1)NC(=O)[C@H](C)NC(=O)[C@H](CC(N)=O)NC(=O)[C@@H](N)CCCCN)[C@@H](C)CC)[C@@H](C)CC)[C@@H](C)O)C(C)C)C(=O)N[C@@H](CC(N)=O)C(=O)N[C@H](C(=O)O)C(C)C  remaining activity (GSK3B; enzyme activity, inhibitor, radiometric; 1 µM, 20 min): 99%
O=Cc1ccc(O)cc1  remaining activity (CTSL; enzyme activity, inhibitor; 100 µM): 64.5%
Cc1[nH]c(C)c(S(=O)(=O)Nc2ccc(Cl)cc2C(F)(F)F)c1C(=O)N1CCC(F)(F)C1  Emax (DRD3; β-arrestin recruitment, agonist; 90 min): 94%
O=C1CC[C@H](N2Cc3cc(N4CCN(CC5CCN(c6ccc([C@@H]7c8ccc(O)cc8CC[C@@H]7c7ccccc7)cc6)CC5)CC4)ccc3C2=O)C(=O)N1  Cmax (male Sprague-Dawley rat, plasma; oral, 20 mg/kg, fasted): 1190 ng/mL

Excerpt of the above:
Cc1coc2c1C(=O)C(=O)c1c-2ccc2c1CCCC2(C)C  remaining activity (CTSL; enzyme activity, inhibitor; 100 µM): 63.8%
COCc1cc(OC)c(-c2cc(C(C)=O)n3ccccc23)cc1OC  ΔTm (BRD9 (Homo sapiens, UniProt Q9H8M2); thermal stability, DSF; 200 µM): 9.4 °C
CC1=CC(=O)c2ccccc2C1=O  remaining activity (CTSL; enzyme activity, inhibitor; 100 µM): 16.4%
